Measured values collected from several papers.
Parts stem from different laboratories: compare values within a part only. Substitutions count along the parent as printed.

Study 1
Target: ABI1, truncated, D143A, DHFR fusion (Arabidopsis thaliana)
Technique: DHFR PCA, deep sequencing
Sample: yeast
Setting: methotrexate growth selection, single substitutions
Added: (+)-ABA 0.11 µM
Baseline: wild-type fitted maximum
Reading: higher = stronger binding
Starting sequence: PYL1, truncated, DHFR fusion (Arabidopsis thaliana); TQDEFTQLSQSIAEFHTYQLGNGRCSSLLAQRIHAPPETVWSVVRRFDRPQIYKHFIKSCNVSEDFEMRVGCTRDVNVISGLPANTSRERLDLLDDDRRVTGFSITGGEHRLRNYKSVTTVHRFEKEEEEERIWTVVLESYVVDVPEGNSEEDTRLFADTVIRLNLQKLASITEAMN; partner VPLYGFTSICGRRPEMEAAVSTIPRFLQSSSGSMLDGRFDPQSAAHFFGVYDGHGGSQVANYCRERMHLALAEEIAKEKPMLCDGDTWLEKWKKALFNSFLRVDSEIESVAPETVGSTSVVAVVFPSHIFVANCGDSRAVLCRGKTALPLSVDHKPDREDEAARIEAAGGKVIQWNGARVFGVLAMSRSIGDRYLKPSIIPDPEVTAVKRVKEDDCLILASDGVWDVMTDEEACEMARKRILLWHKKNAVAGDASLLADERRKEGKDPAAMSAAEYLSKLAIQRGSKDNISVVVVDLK
`E125M` — result for “relative binding score”: 32.3%.
For `L112A`, “relative binding score” read -5.02%.
For `A170N`, “relative binding score” read 0.97%.
Under “relative binding score”, `V78M` is recorded as 63.5%.
For `R88F`, “relative binding score” read 16.4%.
Under “relative binding score”, `R88V` is recorded as 42.6%.
For `G107Y`, “relative binding score” read 4.83%.
For `L112G`, “relative binding score” read -5.95%.
`D95N` — result for “relative binding score”: 3.4%.
`E89N` — result for “relative binding score”: 0.00576%.
Under “relative binding score”, `R74N` is recorded as 21.1%.
`N165Y`: “relative binding score” 10.9%.
`Y18E`: “relative binding score” 0.269%.
Under “relative binding score”, `D75T` is recorded as 54%.
`G107F`: “relative binding score” 0.319%.
`N149V`: “relative binding score” 57.2%.
Under “relative binding score”, `V78Y` is recorded as 91.1%.
`D48N` — result for “relative binding score”: -0.869%.
Under “relative binding score”, `Q19I` is recorded as 12.8%.
Under “relative binding score”, `R45K` is recorded as -1.09%.
For `E130T`, “relative binding score” read 37%.
For `C60T`, “relative binding score” read 6.42%.

Study 2
Target: CCND3, cyclin fold, Cln2 fusion (human)
Technique: yeast growth competition, sequencing
Sample: yeast
Setting: weak parent motif
Baseline: not given
Reading: higher = stronger binding
Starting sequence: CDT1 docking peptide (human); PPARRRLRLSVDE; partner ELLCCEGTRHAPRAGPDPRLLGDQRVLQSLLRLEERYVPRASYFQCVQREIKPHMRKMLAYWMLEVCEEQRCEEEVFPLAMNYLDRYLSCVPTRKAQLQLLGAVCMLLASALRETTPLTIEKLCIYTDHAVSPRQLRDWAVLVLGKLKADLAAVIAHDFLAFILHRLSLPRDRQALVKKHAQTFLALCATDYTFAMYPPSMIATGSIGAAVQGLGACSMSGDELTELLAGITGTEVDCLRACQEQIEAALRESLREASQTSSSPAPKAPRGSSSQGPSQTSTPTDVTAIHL
`R5K L9F` — result for “normalised enrichment score”: -0.332.
`V11A`: “normalised enrichment score” 0.124.
For `L9F`, “normalised enrichment score” read -0.208.
`S10A` — result for “normalised enrichment score”: 0.0496.
`E13A` — result for “normalised enrichment score”: 0.168.
`L9A` — result for “normalised enrichment score”: 0.119.
`L7A`: “normalised enrichment score” 0.207.
`D12A` — result for “normalised enrichment score”: 0.277.
For `R5A L7A`, “normalised enrichment score” read 0.138.

Study 3
Molecule: B1 (RNF32 RING domain)
Technique: yeast two-hybrid
Sample: yeast
Setting: mostly zero background
Baseline: not given
Reading: higher = stronger interaction
B1: RNF32 RING domain (UniProt Q9H0A6); chain VQALRRETHECSICLAPLSAAGGQRVGAGRRSREMALLSCSHVFHHACLLALEEFSVGDRPPFHACPLCRSCYQKKILEC
It gave 0 for “lacZ reporter activity” (UBE2J1 UBC core domain (UniProt Q9Y385)).
For UBE2T UBC core domain (UniProt Q9NPD8): “lacZ reporter activity” read 0.
UBE2I UBC core domain (UniProt P63279) — “lacZ reporter activity”: 0.
The “lacZ reporter activity” was 0 (UBE2S UBC core domain (UniProt Q16763)).
For UBE2R2 UBC core domain (UniProt Q712K3): “lacZ reporter activity” read 0.
UBE2O UBC core domain (UniProt Q9C0C9) — “lacZ reporter activity”: 0.
It gave 0 for “lacZ reporter activity” (UBE2J2 UBC core domain (UniProt Q8N2K1)).
It gave 0 for “lacZ reporter activity” (UBE2G1 UBC core domain (UniProt P62253)).
For UBE2Z UBC core domain (UniProt Q9H832): “lacZ reporter activity” read 0.

Study 4
Target: Protein C-ets-1 (ETS1, Homo sapiens, UniProt P14921, residues 1-441, K379A, full length assumed)
Technique: protein-binding microarray
Form: double-stranded DNA, one strand shown
Sample: in vitro
Tested at: not given
Setting: k-mer, scored over probes, only values ≥0.25
Reading: higher = stronger binding
Residues (chain): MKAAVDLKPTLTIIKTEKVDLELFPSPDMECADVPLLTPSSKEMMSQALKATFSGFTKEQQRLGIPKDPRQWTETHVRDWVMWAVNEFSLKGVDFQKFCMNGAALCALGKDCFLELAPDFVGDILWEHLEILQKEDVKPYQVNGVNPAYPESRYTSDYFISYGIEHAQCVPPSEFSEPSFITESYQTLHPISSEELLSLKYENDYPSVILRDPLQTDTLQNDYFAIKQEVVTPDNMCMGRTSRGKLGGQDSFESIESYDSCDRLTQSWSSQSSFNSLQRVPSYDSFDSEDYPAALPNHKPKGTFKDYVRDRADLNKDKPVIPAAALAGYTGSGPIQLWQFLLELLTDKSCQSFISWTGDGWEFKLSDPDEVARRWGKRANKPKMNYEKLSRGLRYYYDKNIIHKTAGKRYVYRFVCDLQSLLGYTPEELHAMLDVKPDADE
With `CCCGGGAA` the E-score was 0.29.
`CCGCACCC` has an E-score of 0.302.
`CAACCGGG` has an E-score of 0.361.
With `CGGAACGC` the E-score was 0.292.
`CGGTTTGC` has an E-score of 0.318.
`TACTACGA` gave an E-score of 0.252.
With `ACCCCGGA` the E-score was 0.265.
`CAAACCGG` has an E-score of 0.384.
`ATTTGCCG` gave an E-score of 0.269.
The E-score of `CGGTTAAC` is reported as 0.296.
With `ACCGGGGG` the E-score was 0.474.
For `CGTTGATA`, the E-score was 0.268.
With `CACCGGTA` the E-score was 0.444.
`ACCGGTCG` has an E-score of 0.364.
With `ACGTTAGA` the E-score was 0.269.
With `ATTGTTCA` the E-score was 0.298.
`GACCGACA` has an E-score of 0.452.
`ATCCCGGG` gave an E-score of 0.279.
For `AAGCCGGA`, the E-score was 0.277.
For `ATATTAAC`, the E-score was 0.261.
`GGTGTATA` has an E-score of 0.263.
The E-score of `TCCCGGAA` is reported as 0.364.

Study 5
Target: CREB3L2, bZIP domain (human)
Technique: DHFR protein complementation
Sample: yeast
Setting: single substitutions, most at no-binding floor
Baseline: wild-type JUN-FOS pair
Reading: higher = stronger binding
Starting sequence: JUN, bZIP domain (human); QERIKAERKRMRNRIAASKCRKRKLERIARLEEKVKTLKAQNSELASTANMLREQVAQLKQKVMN; partner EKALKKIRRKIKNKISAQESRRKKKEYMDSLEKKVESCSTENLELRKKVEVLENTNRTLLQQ
`V56W` gave a binding fitness of -1.58 natural log.
For `T37V`, the binding fitness was -1.41 natural log.
For `T48M`, the binding fitness was -1.61 natural log.
With `K39A` the binding fitness was -1.41 natural log.
The binding fitness of `S47M` is reported as -1.41 natural log.
For `Q55M`, the binding fitness was -1.3 natural log.
`L52P` has a binding fitness of -1.55 natural log.
`S43N` has a binding fitness of -1.4 natural log.
The binding fitness of `A57N` is reported as -1.35 natural log.
The binding fitness of `A49P` is reported as -1.48 natural log.
`V56P` gave a binding fitness of -1.52 natural log.
For `A29E`, the binding fitness was -1.41 natural log.
`A29K` has a binding fitness of -1.11 natural log.
For `L31H`, the binding fitness was -1.38 natural log.
`E54I` gave a binding fitness of -1.51 natural log.
With `L38I` the binding fitness was -1.48 natural log.
`I28F` gave a binding fitness of -1.24 natural log.
`L38D` gave a binding fitness of -1.58 natural log.
For `L52I`, the binding fitness was -1.3 natural log.
`A57P` gave a binding fitness of -1.52 natural log.
The binding fitness of `S43I` is reported as -1.34 natural log.

Study 6
Target: RNA binding protein fox-1 homolog 2, RRM domain, GST-SBP tag (RBFOX2, Homo sapiens, UniProt O43251-10, residues 100-194)
Technique: RNA Bind-n-Seq
Form: RNA
Sample: in vitro
Tested at: 365 nM
Setting: natural RNA segment, single round, ends assumed
Baseline: no-protein control
Reading: higher = stronger binding
All sequences stand within: GGGAGUUCUACAGUCCGACGAUC … UGGAAUUCUCGGGUGCCAA
Residues (chain): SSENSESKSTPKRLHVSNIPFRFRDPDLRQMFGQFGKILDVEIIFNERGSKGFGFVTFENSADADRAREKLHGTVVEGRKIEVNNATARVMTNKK
`AAAUUUUGGUUGGAUAUAUAGAGAAUUUUAUAAAUGUAUUGCCUUAGAAUUUCUGGGUGGAGACCCAACUACAAUGACAUUGUCAUGCCAGAACUAUAAAGAUAAUUAGA`: “RBNS enrichment (R)” 4.28.
Under “RBNS enrichment (R)”, `GUGAUAGCGUGAAGAGCUUUUCUCAUUAGAAACCAAAUGGUGUAAAUAUUUUAUUUGAUAAAGAUAGUUGAUGGUUUAUUUUAAAAGAUGCACUUUGAGUUGCAAUAUGU` is recorded as 3.35.
`UUGCCUUAUGCUGAGGUCAAACUAAGGAUAAGCAAGCUUUUGUCCUUCAUUUUAACUGUUAUGUCAUACUGUUAUGUUGACAUAUUUCUUUAUAAGAGAAUAGAGGCAAA` — result for “RBNS enrichment (R)”: 1.07.
Under “RBNS enrichment (R)”, `AACCUAAGAAUGGGAGUUACAAAUAGUAAAGAAGCUUUUUUUUUUUUUUUAAUUUAAAGUUUUUUUAUGUAAGUUUUCCCACAUGAUGGGGCCUUGUUUUGCAUGUUGAU` is recorded as 28.8.
Under “RBNS enrichment (R)”, `GCCCAGCGCCGCCUUUUCACAUUUUUUGAGCCAUGGACAUGGGUUGUAAAAAUUUGUGGGGAGUAGGCUCCAGGAAGAGCCAGCAUCCCUGCCCCCGUUUCCCACCGGGG` is recorded as 0.442.
`UGGUGGAAACGUGGGCUUUCUCCAAACCAAGGCCUGAGUUUCCUGUAAGGGUCCUCUGUUUUUGAUUCACCCAAAAGUCUGCAAACCCCCAGCAUCUCUGCUCUGGCCAG` — result for “RBNS enrichment (R)”: 0.388.
For `CUGCUGACCUCAGGGUCACAGUUGAGUCAUUUGCCAGUUGACGGAGCAAGUUUGACCUUGGUUCUGUUGCUGAAGCAAAUUUGGAACUUUUCUGUCUCAGUGUGAUCCAC`, “RBNS enrichment (R)” read 0.209.
`ACAUAAAAUUGAUUUAUCUUUCUCUCUGUACACAAAGUAUCCAAAUAUUAUACCUUAAGGAUUCCUACCAGGUUUUCUUGAAAAGUGGCUUUUACAUGAGGCAAGAAGGA`: “RBNS enrichment (R)” 0.302.
Under “RBNS enrichment (R)”, `UUAUGAAGUUGACAAAAUCUAACUAUAUUUGGUGCAUCACAAUGGACACAGAAUGCUGCUGCUCCUCUUAAAAAUUAAAUGUGUCAUAUUAUAUUCUUUAAACUUACUGU` is recorded as 0.514.
`AAGAGAUAUAAACUCUAGAGUGAGUCUAUUGGGAAUCAGCAGAUUAUACAUACCUGGGGCAUCUUCUCAACUAGUGCGCAGGAGCACCAGGUAGAGGCAGCUGUGUGUGG` — result for “RBNS enrichment (R)”: 0.277.
`GUGGCCCCACCCUCCAUUCCGGACCCCAUGGGCCCAGCCCCUGCCCAUCUAGUUGGUUUGGGGACCCUGGUGCAUGCUAGUGGGCAUGGGAUCAGCCAAGCUUCGUUCCA`: “RBNS enrichment (R)” 1.29.
`UCCCUCAUUCCAGCCUUUCUAUAUAAAUAGCUCUUUCUUGCUGUUUUAAUGUGGUGCACACUAUAGCCUCACAAACCUGUUAUUCCAGUGUAAUCUGCAGUGUCGUAACU`: “RBNS enrichment (R)” 0.838.

Excerpt of the above (study 4):
With `CGGAACGC` the E-score was 0.292.
`CGGTTTGC` has an E-score of 0.318.
`TACTACGA` gave an E-score of 0.252.
With `ACCCCGGA` the E-score was 0.265.
`CAAACCGG` has an E-score of 0.384.
`ATTTGCCG` gave an E-score of 0.269.
The E-score of `CGGTTAAC` is reported as 0.296.
